Published values pooled from the literature.
Each line is one published result; not all experiments were run side by side. ± gives the spread as reported.
MAPK8: Mitogen-activated protein kinase 8 (MAPK8, Homo sapiens, UniProt P45983)
cyp121: Mycocyclosin synthase (cyp121, Mycobacterium tuberculosis, UniProt P9WPP7)

By UniProt entry, the sequences of proteins in these tests, tags left out. Residues count along the entry.
UniProt P45983, 1-384 isoform 3: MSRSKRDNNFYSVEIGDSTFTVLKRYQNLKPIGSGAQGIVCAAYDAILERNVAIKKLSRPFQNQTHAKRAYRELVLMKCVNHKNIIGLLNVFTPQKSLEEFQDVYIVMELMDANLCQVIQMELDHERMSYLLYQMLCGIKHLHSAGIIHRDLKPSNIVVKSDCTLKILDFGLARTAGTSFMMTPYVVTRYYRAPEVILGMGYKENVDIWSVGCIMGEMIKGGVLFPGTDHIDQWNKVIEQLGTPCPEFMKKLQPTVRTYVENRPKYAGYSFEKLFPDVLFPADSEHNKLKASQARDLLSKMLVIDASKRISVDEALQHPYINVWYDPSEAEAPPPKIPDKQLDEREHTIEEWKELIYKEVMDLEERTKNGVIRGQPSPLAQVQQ
UniProt P9WPP7, whole entry: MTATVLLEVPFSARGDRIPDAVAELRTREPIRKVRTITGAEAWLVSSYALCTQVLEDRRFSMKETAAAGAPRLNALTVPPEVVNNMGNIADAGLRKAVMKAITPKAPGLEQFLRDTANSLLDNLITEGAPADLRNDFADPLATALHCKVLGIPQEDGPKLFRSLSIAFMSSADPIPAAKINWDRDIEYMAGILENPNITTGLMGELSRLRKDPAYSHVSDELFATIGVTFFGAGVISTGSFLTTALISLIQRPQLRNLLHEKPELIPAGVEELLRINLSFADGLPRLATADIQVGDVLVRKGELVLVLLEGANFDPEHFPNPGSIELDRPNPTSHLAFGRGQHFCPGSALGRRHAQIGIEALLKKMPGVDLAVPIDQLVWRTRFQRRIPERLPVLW
UniProt P28335, 33-458 limits assumed: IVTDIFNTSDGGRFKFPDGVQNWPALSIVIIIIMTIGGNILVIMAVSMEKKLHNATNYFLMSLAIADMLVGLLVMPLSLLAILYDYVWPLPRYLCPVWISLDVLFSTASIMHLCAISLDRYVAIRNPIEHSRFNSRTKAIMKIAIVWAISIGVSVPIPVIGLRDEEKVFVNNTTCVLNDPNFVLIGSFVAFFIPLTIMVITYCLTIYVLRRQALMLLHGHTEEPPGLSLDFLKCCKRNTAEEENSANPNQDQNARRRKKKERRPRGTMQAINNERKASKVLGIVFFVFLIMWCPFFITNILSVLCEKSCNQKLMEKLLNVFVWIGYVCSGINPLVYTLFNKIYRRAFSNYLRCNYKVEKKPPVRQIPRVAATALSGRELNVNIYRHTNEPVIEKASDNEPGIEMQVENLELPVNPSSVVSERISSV
UniProt P36544, 23-502 limits assumed: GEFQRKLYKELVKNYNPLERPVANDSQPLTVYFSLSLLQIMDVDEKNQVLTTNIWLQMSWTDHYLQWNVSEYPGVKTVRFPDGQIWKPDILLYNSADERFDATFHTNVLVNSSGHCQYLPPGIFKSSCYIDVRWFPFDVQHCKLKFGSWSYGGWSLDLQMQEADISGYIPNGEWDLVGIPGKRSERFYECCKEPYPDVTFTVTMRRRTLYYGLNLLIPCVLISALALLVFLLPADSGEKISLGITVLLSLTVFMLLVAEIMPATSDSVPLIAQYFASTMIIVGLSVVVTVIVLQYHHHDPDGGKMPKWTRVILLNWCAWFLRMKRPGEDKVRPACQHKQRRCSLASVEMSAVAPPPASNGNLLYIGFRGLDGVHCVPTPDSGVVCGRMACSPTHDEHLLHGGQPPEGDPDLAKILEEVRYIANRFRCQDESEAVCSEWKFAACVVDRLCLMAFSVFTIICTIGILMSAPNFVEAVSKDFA
UniProt Q81258, 2431-3021 limits assumed: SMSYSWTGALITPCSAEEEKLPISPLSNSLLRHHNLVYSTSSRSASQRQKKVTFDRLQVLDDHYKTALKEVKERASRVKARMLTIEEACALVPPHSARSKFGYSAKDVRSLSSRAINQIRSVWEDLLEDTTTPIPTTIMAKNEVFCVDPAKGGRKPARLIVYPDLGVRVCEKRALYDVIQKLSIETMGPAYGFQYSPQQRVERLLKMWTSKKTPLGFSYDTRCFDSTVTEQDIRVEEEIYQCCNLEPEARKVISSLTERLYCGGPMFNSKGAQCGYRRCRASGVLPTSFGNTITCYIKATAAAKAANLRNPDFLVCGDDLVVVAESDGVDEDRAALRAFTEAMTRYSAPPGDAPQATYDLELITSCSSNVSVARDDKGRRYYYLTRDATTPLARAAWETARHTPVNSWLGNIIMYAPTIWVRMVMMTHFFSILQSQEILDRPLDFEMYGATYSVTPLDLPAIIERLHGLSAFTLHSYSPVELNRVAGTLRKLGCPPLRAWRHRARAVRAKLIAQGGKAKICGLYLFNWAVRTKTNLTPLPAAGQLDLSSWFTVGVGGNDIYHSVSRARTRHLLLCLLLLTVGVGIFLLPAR
UniProt Q9HBH9, whole entry C225S: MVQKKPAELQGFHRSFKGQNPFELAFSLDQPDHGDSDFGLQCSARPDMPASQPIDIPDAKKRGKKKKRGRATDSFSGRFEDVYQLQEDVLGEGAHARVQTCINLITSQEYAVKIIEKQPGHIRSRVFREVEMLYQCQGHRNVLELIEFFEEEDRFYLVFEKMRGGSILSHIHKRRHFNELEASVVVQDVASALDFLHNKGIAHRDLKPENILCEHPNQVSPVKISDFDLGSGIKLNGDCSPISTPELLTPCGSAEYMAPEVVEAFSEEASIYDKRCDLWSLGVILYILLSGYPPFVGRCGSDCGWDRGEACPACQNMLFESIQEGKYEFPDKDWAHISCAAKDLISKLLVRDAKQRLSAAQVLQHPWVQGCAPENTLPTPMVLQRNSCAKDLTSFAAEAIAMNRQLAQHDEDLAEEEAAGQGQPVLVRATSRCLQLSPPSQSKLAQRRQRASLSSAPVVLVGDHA
UniProt P06730, whole entry: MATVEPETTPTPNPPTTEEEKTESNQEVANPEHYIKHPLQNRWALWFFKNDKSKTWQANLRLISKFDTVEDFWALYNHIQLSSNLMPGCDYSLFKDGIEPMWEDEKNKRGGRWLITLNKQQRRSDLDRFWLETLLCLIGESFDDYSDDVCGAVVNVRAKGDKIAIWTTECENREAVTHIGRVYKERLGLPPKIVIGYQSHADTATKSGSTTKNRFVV
UniProt F1M9V7, 1-920: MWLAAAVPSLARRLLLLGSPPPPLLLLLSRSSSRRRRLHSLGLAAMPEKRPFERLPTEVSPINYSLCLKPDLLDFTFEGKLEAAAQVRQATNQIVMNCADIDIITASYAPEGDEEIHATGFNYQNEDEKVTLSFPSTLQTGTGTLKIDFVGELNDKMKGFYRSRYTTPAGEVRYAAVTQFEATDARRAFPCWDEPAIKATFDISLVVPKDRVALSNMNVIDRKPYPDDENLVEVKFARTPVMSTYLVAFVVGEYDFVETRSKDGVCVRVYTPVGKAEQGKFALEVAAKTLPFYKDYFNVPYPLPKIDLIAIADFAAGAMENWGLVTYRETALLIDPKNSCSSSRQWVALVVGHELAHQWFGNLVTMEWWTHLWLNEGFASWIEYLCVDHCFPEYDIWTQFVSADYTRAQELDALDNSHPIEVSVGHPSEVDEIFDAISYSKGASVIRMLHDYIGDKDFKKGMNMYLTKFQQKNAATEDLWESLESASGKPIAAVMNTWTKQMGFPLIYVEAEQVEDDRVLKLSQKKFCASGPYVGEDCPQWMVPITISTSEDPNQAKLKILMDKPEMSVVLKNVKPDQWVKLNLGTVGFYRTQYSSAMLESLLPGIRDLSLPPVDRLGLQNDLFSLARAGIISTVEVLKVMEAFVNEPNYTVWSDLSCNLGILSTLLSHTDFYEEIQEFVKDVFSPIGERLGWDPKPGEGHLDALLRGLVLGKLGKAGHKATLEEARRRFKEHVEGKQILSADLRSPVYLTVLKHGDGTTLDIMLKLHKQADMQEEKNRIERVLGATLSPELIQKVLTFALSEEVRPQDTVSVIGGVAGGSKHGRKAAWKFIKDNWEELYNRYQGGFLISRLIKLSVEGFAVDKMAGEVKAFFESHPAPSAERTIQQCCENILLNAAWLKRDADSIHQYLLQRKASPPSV
UniProt P9WGR1, whole entry: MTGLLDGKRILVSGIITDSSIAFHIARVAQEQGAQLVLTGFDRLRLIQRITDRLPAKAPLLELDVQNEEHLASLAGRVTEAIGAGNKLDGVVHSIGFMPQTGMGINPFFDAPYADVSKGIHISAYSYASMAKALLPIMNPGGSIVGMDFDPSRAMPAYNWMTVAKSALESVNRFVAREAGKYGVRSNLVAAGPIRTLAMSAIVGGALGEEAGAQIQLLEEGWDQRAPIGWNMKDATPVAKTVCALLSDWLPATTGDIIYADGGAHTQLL

Compound | tested on | assay | system | conditions | how to read | measurement | value
COC(=O)[C@@]1(C)C=C(C(=O)Nc2ccc(C)c(C(=O)Nc3ccc(Nc4nccc(-c5cccnc5)n4)cc3)c2)C(=O)CC1 | MAPK8 | kinase activity, inhibitor | – | 0.02032 µM, unit not given, added: 10 mM GSH | baseline: DMSO | remaining activity | 0.366
COc1ccc(CN[C@@H]2CO[C@H](C(c3ccccc3)c3ccccc3)C[C@H]2O)cc1 | HTR2C (Homo sapiens, UniProt P28335) | radioligand binding | – | 10 µM, added: [3H]mesulergine | – | inhibition | 30.6%
C[C@@H]1NC(=O)[C@H](CCCNC(=N)N)NC(=O)[C@H](CCCNC(=N)N)NC(=O)[C@@H]2CCCN2C(=O)[C@H](CO)NC(=O)[C@@H]2CSSC[C@H](NC(=O)CN)C(=O)N[C@@H](CSSC[C@@H](C(N)=O)NC(=O)[C@H](CO)NC(=O)[C@H](CCCNC(=N)N)NC1=O)C(=O)N[C@@H](CO)C(=O)N[C@@H](Cc1c[nH]cn1)C(=O)N1CCC[C@H]1C(=O)N[C@@H](C)C(=O)N2 | CHRNA7 (Homo sapiens, UniProt P36544) | ion current, antagonist | Xenopus oocytes | 10 µM, 5 min, after washout, added: acetylcholine | baseline: control | recovery of response | 30 ± 9%
O=c1ccn([C@@H]2O[C@H](COP(=O)(O)OP(=O)(O)OP(=O)(O)O)[C@@H](O)[C@]2(F)Br)c(=O)[nH]1 | Genome polyprotein, NS5B polymerase (Hepatitis C virus genotype 3a, UniProt Q81258) | polymerase activity, inhibitor | Hepatitis C virus, genotype 3a | – | baseline: genotype 1b | IC50 fold change | 2.8
CCCCC(c1ccc(-c2ccccc2)cc1)n1ccnc1 (centres unmarked) | cyp121 | binding | – | – | – | Kd | 1.9 ± 0.39 µM
C=CC(=O)Nc1cc(-n2c(=O)ccc3cnc4ccc(-c5cn[nH]c5)cc4c32)ccc1C | MKNK2 (Homo sapiens, UniProt Q9HBH9, C225S) | enzyme activity, inhibitor, immunoprecipitated kinase | – | – | – | highest concentration rescued by mutant | > 3 µM
Cc1ccc(-c2csc(NP(=O)(O)OCC3OC(n4c[n+](Cc5ccccc5)c5c(=O)[nH]c(NC(=O)c6ccccc6)nc54)C4OC(C)(C)OC34)n2)cc1 (centres unmarked) | Eukaryotic translation initiation factor 4E, phosphorylated (EIF4E, Homo sapiens, UniProt P06730) | measured: EIF4E | MCF7 | – | – | protein level | 3.2 ng/mL
NC[C@@H](NC[C@@H]1CCCN1C[C@@H](CO)NC[C@@H](NCCC12CC3CC(CC(C3)C1)C2)c1ccccc1)c1ccccc1 | Escherichia coli | bacterial growth | – | compound alone | – | IC50 | 12.3 µM
COc1ccc(-c2ccc(C(C)n3ccnc3)cc2)cc1 (centres unmarked) | cyp121 | binding | – | – | – | Kd | 10.9 ± 2 µM
CN(C)c1cc(CN2CCOCC2)nc2nc(NCc3ccc(C(C)(C)C)cc3)nn12 | Saccharomyces cerevisiae | – | efflux-deficient, lacking 16 ABC transporters | 123 µg/mL, phosphatidic acid absent | – | growth inhibition | 100%
CSCC[C@H](NC(=O)[C@H](Cc1ccccc1)NC(=O)CNC(=O)CNC(=O)[C@@H](N)Cc1ccc(O)cc1)C(=O)O | Puromycin-sensitive aminopeptidase (Rattus norvegicus, UniProt F1M9V7) | substrate | – | rat enzyme, MW 100 kDa | – | kcat | 10.3 s⁻¹
COC(=O)[C@@H](CS)N1C(=O)c2ccc(N(C)C)cc2C1=O | CA2 (Homo sapiens, UniProt P00918) | probe | – | 10 µM, probe:protein 1:3 | baseline: probe alone | fluorescence increase | 4 to 5 fold
Oc1cc(Cn2cc(C3CC3)nn2)ccc1Oc1ccccc1Cl | inhA (Mycobacterium tuberculosis, UniProt P9WGR1) | – | – | 20 °C, EI* to EI | – | reverse isomerization rate k6 | 0.0047 ± 0.0011 min⁻¹
COC(=O)[C@@]1(C)C=C(C(=O)Nc2cc(C(=O)Nc3ccc(Nc4nccc(-c5cccnc5)n4)cc3)ccc2C)C(=O)CC1 | MAPK8 | kinase activity, inhibitor | – | 0.0007527 µM, unit not given, added: 10 mM GSH | baseline: DMSO | remaining activity | 1.01

A few entries again:
Compound | tested on | assay | system | conditions | how to read | measurement | value
NC[C@@H](NC[C@@H]1CCCN1C[C@@H](CO)NC[C@@H](NCCC12CC3CC(CC(C3)C1)C2)c1ccccc1)c1ccccc1 | Escherichia coli | bacterial growth | – | compound alone | – | IC50 | 12.3 µM
